Measurements from different studies.
Every numbered part comes from another study and shows a few of its results, in no order.

Set 1 — technique: RNA Bind-n-Seq; molecule type: RNA; matrix: in vitro; tested at: 200 nM; notes: whole 134-nt RNA, ends assumed; added: 150 mM LiCl; relative to: input library; reading: higher = stronger binding; each molecule: 7-deaza-guanosine replaces G
Target: Ras GTPase-activating protein-binding protein 1, full length (G3BP1, Homo sapiens, UniProt Q13283)
UniProt Q13283, sequence (whole entry, looked up): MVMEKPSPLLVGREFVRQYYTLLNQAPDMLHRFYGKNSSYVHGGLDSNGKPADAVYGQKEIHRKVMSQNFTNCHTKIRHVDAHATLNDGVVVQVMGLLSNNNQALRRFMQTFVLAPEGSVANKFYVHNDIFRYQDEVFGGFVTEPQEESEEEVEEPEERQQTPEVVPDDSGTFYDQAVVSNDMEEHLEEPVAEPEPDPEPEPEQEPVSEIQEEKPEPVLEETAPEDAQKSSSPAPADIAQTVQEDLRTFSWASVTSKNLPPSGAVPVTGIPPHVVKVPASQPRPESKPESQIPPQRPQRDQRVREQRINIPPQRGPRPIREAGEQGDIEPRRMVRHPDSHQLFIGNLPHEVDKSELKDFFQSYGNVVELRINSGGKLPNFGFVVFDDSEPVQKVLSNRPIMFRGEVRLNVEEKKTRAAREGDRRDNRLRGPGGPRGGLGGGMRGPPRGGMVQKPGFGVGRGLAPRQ
Shared flanks, not repeated: GGGAGUUCUACAGUCCGACGAUC … UGGAAUUCUCGGGUGUCAAGG
| Oligonucleotide | log2 enrichment |
| --- | --- |
| GCAGGAAGUAAAAACAAAUGGAAAUGCUUCGGAUAGUGGCAGGGGUGGGGGUUGCUAAGGAAAGGUUGGGAUGGGAGUGGGUAAAGAGUU | 0.00546 |
| CAAGUCCUGUGCUACACAUCGUAUGUACCGAAUCGGGGCCCGGGCCCGGGGCCCGGAAAGUAUUAUGUUACGCCGUUCGGAUCUGCACUU | -0.72 |
| CAAGUCCUGUGCUACACAUCGUAUGUACCGAAUCGGGUGGGAAAGGGUUUUUGGGAAAGUAUUAUGUUACGCCGUUCGGAUCUGCACUUC | -0.806 |
| ACCAUGCAGGUGGGCAUCUUUGGGAAGUUGGGCAAGGGGGGGAUAGGGAGGGGGGUAACACUUUGGGAACAGGUGGUCCCAGGUCGUUUC | 0.499 |
| UUUGUCCCUGCUCAGGAUGAGACUUCUGUGAGCAGCGAGGAUUUUGAUAUGAGCGACUCCACAUGGAUGUCAGCUGACCCGCACCUGGCC | -1.04 |
| UGGGAGGUGGAUUUUGUUUAUUUUUUUAGCUCAUUUCCAGGGGUGGGAAUUUUUUUUUAAUAUGUUUCAUGAAUAAAGUUGUUUUUGAAA | -0.306 |
| ACCAUGCAGGUGGGCAUCUUUGGGAAGUGGGGCAAGGGGGGGAUAGGGAGGGGGGUAACACUUUGGAAACAGGUGGUCCCAGGUCGUUUC | -0.111 |
| UGGGAGGUGGAUUUUGUUUAUUUUUUUAGCUCAUUUCCAGGGGGGGGAAUUUUUUUUUAAUAUGUGUCAUGAAUAAAGUUGUUUUUGAAA | 0.39 |
| UCAAGUCCUGUGCUACACAUCGUAUGUACCGAAUCGGUUUGGUUUGGGGUUUGGGAAAGUAUUAUGUUACGCCGUUCGGAUCUGCACUUC | -1.75 |
| UCAAGUCCUGUGCUACACAUCGUAUGUACCGAAUCGGCCCGGGGCCCGGCCCGGAAAGUAUUAUGUUACGCCGUUCGGAUCUGCACUUCC | -0.162 |
| CCUCAAGUCCUGUGCUACACAUCGUAUGUACCGAAUCGGAGGAGGAAAAAGGAAAGUAUUAUGUUACGCCGUUCGGAUCUGCACUUCCAG | -0.627 |

Set 2 — technique: protein binding microarray; molecule type: double-stranded DNA, one strand shown; matrix: in vitro; tested at: not given; relative to: not given; reading: higher = stronger binding
Target: Histone acetyltransferase KAT6A, winged helix 2, GST fusion (KAT6A, Homo sapiens, UniProt Q92794, residues 85-181)
Notes: 8-mer, flanks averaged, mean of 2 arrays, mostly near background
Target sequence (chain): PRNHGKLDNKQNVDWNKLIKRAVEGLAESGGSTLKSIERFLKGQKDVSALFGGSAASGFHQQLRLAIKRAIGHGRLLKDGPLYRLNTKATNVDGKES
| Oligonucleotide | E-score |
| --- | --- |
| CCTGTAAG | -0.152 |
| GTACATGA | -0.0973 |
| ATGTTGCA | -0.0932 |
| ACAGCTCC | 0.00312 |
| CAGACGCG | 0.0223 |
| CAGGTCTC | -0.117 |
| TACCGTAA | -0.139 |
| CGTGGCAC | 0.102 |
| GGTCGACA | 0.0621 |
| ACCTTGAT | 0.0209 |
| CAATGACG | -0.0701 |
| ACCTGCGG | 0.143 |
| ATGGCTGG | -0.0522 |
| ATGGTAAG | -0.114 |
| ATAGAGCA | 0.162 |
| GGAATACC | -0.0288 |

Set 3 — technique: protein-binding microarray; molecule type: double-stranded DNA, one strand shown; matrix: in vitro; tested at: 2200 nM top; notes: 60-bp whole probe; added: salmon DNA 0.4 mg/ml; relative to: random background probes; reading: higher = stronger binding; shared flanks, not repeated: GCCTAGCAC … GTCTTGATTCGCTTGACGCTGCTG
Target: Interferon regulatory factor 7, full length, phosphomimetic (IRF7, Homo sapiens, UniProt Q92985, residues 1-503, S471D/S472D/S475D/S476D/S477D/S483D/S484D/S487D)
UniProt Q92985, sequence (whole entry, unmodified, looked up): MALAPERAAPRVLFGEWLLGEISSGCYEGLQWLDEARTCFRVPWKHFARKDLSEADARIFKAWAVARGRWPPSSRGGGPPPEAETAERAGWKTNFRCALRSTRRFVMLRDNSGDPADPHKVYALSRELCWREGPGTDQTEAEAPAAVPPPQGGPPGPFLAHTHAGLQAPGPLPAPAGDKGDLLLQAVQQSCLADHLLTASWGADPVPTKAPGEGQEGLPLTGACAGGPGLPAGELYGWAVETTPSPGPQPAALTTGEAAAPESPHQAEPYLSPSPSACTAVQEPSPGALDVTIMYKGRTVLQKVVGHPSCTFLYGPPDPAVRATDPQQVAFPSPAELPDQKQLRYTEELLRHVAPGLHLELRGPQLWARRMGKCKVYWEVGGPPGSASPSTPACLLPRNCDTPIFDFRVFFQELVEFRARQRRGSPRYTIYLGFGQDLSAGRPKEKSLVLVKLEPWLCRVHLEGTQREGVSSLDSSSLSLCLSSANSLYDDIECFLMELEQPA
| Oligonucleotide | fitted relative affinity [z-score] |
| --- | --- |
| GACGATCTCAGACTCGAGACGTGCTAG | 0.0203 |
| TTAGAACTGGGTATCGATTAGTGCTAG | -0.151 |
| TAGTATTTTTTTCCAGAGGGGTGCTAG | 0.405 |
| AAGGTAGCACTTCACAGCAAGTGCTAG | -0.549 |
| GACGGTCTGCTTTTCCTGACGTGCTAG | 0.852 |
| TTAGGTCTCCAACTGCTTTAGTGCTAG | 0.309 |
| GACGGTCTCGGTCTCGGGGCGTGCTAG | -0.294 |
| GGCGGTCTCGGACTGGGGACGTGCTAG | -1.12 |
| TCATCTGTCATTTTCTCACTGTGCTAG | 2.03 |
| TTAGGACTGCTTTTCCTTTTGTGCTAG | 2.42 |
| TTAAGTTTCGACACTGGGTTAGTGCTA | 2.95 |
| TCAGGTCTCGGTCTCGGTTAGTGCTAG | 1.12 |
| CTTTCTCTGCTCTTTTCAACAGTGCTA | 2.02 |
| TTAGAACTTGGGTATCGATTAGTGCTA | -0.393 |
| TTAGGACTGGACGCTGGGTTAGTGCTA | -0.735 |
| GGCGGTATCGACACTGGGGACGTGCTA | -0.957 |
| TTAGATATCAGACTCGATTAGTGCTAG | 0.239 |

Set 4 — technique: RNA Bind-n-Seq; molecule type: RNA; matrix: in vitro; tested at: not given; relative to: input RNA pool; reading: higher = stronger binding
Target: RING finger protein unkempt homolog, zinc fingers 1-6, GST-SBP tag (UNK, Homo sapiens, UniProt Q9C0B0, residues 30-357)
UniProt Q9C0B0, sequence (30-357, looked up): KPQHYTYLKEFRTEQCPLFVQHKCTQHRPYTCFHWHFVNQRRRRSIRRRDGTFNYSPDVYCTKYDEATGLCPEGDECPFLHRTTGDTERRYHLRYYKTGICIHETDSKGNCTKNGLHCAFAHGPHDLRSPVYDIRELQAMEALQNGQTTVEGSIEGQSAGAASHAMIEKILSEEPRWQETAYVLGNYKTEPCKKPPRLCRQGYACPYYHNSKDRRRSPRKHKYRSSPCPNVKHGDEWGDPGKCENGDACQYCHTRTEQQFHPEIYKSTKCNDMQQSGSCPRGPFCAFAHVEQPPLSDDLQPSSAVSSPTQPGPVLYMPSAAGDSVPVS
Notes: RNA with constant flanks, human and mouse sites, ends assumed
Shared flanks, not repeated: GGGAGUUCUACAGUCCGACGAUC … CAACAGAGGAUUGAGCAUCA
| Oligonucleotide | bound/input enrichment |
| --- | --- |
| CUGUUCUAUUUCUCCUUCGGCCGCCGCCGCCACUGCUGCACACAGCUGGUGUCGGUGCCGCGCUUUUACCCCCAAGUCGUUCCCGCAGCCUAUGGCCCAGGCCGCCUUGGGUAUUUCUGC | 0.118 ratio |
| AAUACUACAGUUGAAAGUUUGAUACAAAAAUUUGCUGAGUCAAAAGGCACUGGGAAGGAAAGACCUGGCCUCAUUGAAUUUGAAGAAUGUGACACUGCUAGUGCAGUUGAAGGUAUAAAA | 0.217 ratio |
| UUUCCAAAGCAGCCAGGAACAUCAGGUGCUUAUCCUCUUACUUCACCCCCUACAUCUUAUCAUAGCACAGUCAAUCAGUCUCCCUCAAUGAUGCACACACAGUCUCCAGGAAAUCUGCAU | 1.58 ratio |
| UUUAAAACAGGCCUAAAGGCUUUGAUGACAGUUGGAAAAGAGCCAUUUCCCACCAUUUAUGUGGACUCACAAAAGGAAAAUGAGAGAUGGGAUGUUAUUUCUAAGUCACAGAUGAAGAAC | 0.143 ratio |
| UUCUGUGCACAUCAGUUGGCUGGUGAACAAGGCUAUAUCAGACUUAUUUUCCAAGGACCUUUAGACUAGCAGCUGUCCUCCAGGACUGCAUUGUAAGUUUAUAAGCUAAGUGAUUGGGUU | 0.213 ratio |
| AACGCUUCCGUGAGACUUGACAAUAGCUCUGGUGCAAGUGUGGUAGCUAUCGACAACAAAAUAGAGCAAGCUAUGGAUCUGGUGAAAAGCCAUUUGAUGUAUGCGGUGAGGGAGGAAGUG | 0.517 ratio |
| GGCCCAAAAGGAAAUGAAAUACGAACAUCAAAAGAAGUUGAACCUUUCAACAAUAUUGAUAUUGAAAUUUCUAUGUUUGAAAAAGGGAAGGUACCUAAGAUUGUCAACCUAAGGGAAAUA | 0.223 ratio |
| GAUUAUUUAUUCAAGUUACUUCUGAUUGGCGACUCAGGGGUUGGAAAGUCUUGCCUUCUUCUUAGGUUUGCAUGGGACACAGCAGGCCAGGAAAGAUUUCGAACAAUCACCUCCAGUUAU | 0.55 ratio |
| GCUGCGGGGCUGGGGCUGGGGCUACCCGCCGCGGACUCCCGGGGUCACUACCAGCUGCUGCUGUCAGGCCGGGCCCUGGCCGACCGCUACCGGAGGAUUUAUACCGCUGCGCUCAAUGAC | 0.171 ratio |
| AGAAAGCAAAACUUGGAAAGAUUUAAGAAAGGAGAUGUAAGAUUCUUGAUUUGCACAGAUGUAGCUGCUAGAGGAAUUGAUAUCCACGGUGUUCCUUAUGUUAUAAAUGUCACUCUGCCC | 0.429 ratio |
| UUUGGGCAAUGCUAUGAGUUUCUCACUCUUCAUACAGUGAAAAAGUACUUUCUUCCAAUAAUAGAAAUGGUUCCACAGUUUUUAGAAAACUUAACUGAUGAAGAACUGAAAAAAGAAGCA | 0.779 ratio |

Set 5 — technique: aptamer microarray, sandwich; molecule type: DNA with 2'F-ANA; matrix: in vitro; tested at: 200 nM; added: Cy3 exosite-II aptamer, 400 nM; reading: higher = stronger binding; oligonucleotide: GGTTGGTGTGGTTGG
Target: Prothrombin, mature alpha-thrombin (F2, Homo sapiens, UniProt P00734)
Notes: whole 15-mer aptamer, many near background
| Modification | mean fluorescence intensity |
| --- | --- |
| 2'F-ANA at 1 4 6 7 9 12 14 15 | 85.6 a.u. |
| 2'F-ANA at 2 3 4 5 7 11 | 146 a.u. |
| 2'F-ANA at 1 3 5 6 7 8 9 13 14 15 | 46.2 a.u. |
| 2'F-ANA at 2 3 8 9 10 11 14 | 267 a.u. |
| 2'F-ANA at 2 9 10 14 | 89 a.u. |
| 2'F-ANA at 1 2 3 6 8 9 12 15 | 421 a.u. |
| 2'F-ANA at 1 3 6 7 8 9 10 12 13 15 | 215 a.u. |
| 2'F-ANA at 1 3 4 5 8 9 11 12 14 | 44.4 a.u. |
| 2'F-ANA at 3 5 6 8 10 12 14 15 | 51.6 a.u. |
| 2'F-ANA at 1 2 3 5 6 9 10 11 12 14 | 49.3 a.u. |
| 2'F-ANA at 1 2 3 5 8 9 11 14 15 | 46.6 a.u. |
| 2'F-ANA at 1 2 4 7 8 10 11 12 14 15 | 47.1 a.u. |
| 2'F-ANA at 1 2 5 6 11 13 14 | 56.4 a.u. |
| 2'F-ANA at 4 6 7 8 | 412 a.u. |
| 2'F-ANA at 1 2 3 4 6 7 9 12 14 15 | 67.7 a.u. |
| 2'F-ANA at 3 4 6 7 8 9 10 12 13 15 | 230 a.u. |
| 2'F-ANA at 2 5 7 10 12 13 15 | 47.4 a.u. |
| 2'F-ANA at 1 4 6 9 12 13 14 15 | 51 a.u. |
